Published values from different studies.
Numbers after ± are the reported error.
Target: Mu-type opioid receptor (OPRM1, Homo sapiens, UniProt P35372)
UniProt P35372, sequence (whole entry, looked up): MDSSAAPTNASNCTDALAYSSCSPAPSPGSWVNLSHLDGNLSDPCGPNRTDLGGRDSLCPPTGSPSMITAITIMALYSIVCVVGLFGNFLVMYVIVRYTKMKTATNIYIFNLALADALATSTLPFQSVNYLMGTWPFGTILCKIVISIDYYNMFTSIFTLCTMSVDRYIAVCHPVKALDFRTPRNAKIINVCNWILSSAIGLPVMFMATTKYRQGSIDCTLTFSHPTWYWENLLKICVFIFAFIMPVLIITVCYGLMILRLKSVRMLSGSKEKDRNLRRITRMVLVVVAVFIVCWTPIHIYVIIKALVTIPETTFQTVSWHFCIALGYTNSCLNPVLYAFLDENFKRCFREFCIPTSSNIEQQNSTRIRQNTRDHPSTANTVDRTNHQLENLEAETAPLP

Compound | assay | test system | conditions | how to read | measurement | value
CNC(=O)C[C@H](Cc1ccc(C#N)cc1)NC(=O)c1cc(-c2ccc(CN[C@H](C)c3ccc(C)cc3)o2)ccc1Cl | agonist response, antagonist |  | 10 µM | reference: agonist control | inhibition | 7%
CC(=O)C12NC(C)(C)CC1(C)C(=O)C1=C2c2c(c3c4n2C(C)(C)CC2=C4C4(CC(C)(C)NC(C)(C4)C2=O)CC3(C)C)C(=O)C(C)(C)N1 (single isomer, unassigned; (-)) | cAMP level, agonist, LANCE Ultra cAMP | CHO | 50 µM |  | activation | 3.05 ± 0.07%
Cn1ccc2cc(-n3c(=O)[nH]c4sc5c(c4c3=O)CCCC5)ccc21 | ligand displacement, radioligand |  | 10 µM |  | inhibition | 5%
COc1ccc(C(=O)Nc2c(-c3cccs3)nc3ccccn23)cc1 | ligand displacement, radioligand |  | 10 µM |  | inhibition | < 50%
Cc1cccc(O[C@H]2CCC[C@@H](C(C)CNCc3ccncc3)C2)c1 (relative stereo) | ligand displacement |  | 10 µM |  | inhibition | 74%
C[Si](C)(C)C[C@H](CN)CC(=O)O | ligand displacement, radioligand |  | 250 µM |  | inhibition | 9%
Brc1ccccc1-c1nnc(CSc2nnnn2-c2ccccc2)o1 | ligand displacement, radioligand |  | 10 µM |  | inhibition | 12%
O=C1c2sc(-c3ccc(N4CCC(F)C4)nc3F)nc2CCN1c1cccnc1 (centres unmarked) | ligand displacement, radioligand |  | 1 µM |  | inhibition | 28%
COc1ncc2nc(C)n(Cc3ncc(S(N)(=O)=O)cc3F)c2c1-c1ccccc1 | antagonist, cell-based |  | 10 µM |  | inhibition | -0.232%
COc1ccc(C#CC2=C[C@H]3C[C@@]4(OC(=O)C=C24)[C@H]2CC[C@H](C(OC)OC)N32)cc1 | ligand displacement, radioligand |  | 10 µM |  | inhibition | 17%
C[C@H](CCC(=O)O)[C@H]1CC[C@H]2[C@@H]3[C@H](OS(=O)(=O)O)C[C@@H]4C[C@H](O)CC[C@]4(C)[C@H]3C[C@H](O)[C@]12C |  |  | 100 µM |  | activity | 1%

Excerpt of the above:
Compound | assay | test system | conditions | how to read | measurement | value
COc1ccc(C#CC2=C[C@H]3C[C@@]4(OC(=O)C=C24)[C@H]2CC[C@H](C(OC)OC)N32)cc1 | ligand displacement, radioligand |  | 10 µM |  | inhibition | 17%
